Experimental data collected from several papers.
Each numbered part is a random draw from the data of one study; scales do not carry over between parts.
Sequence of UniProt Q9H0K1 (whole entry, looked up): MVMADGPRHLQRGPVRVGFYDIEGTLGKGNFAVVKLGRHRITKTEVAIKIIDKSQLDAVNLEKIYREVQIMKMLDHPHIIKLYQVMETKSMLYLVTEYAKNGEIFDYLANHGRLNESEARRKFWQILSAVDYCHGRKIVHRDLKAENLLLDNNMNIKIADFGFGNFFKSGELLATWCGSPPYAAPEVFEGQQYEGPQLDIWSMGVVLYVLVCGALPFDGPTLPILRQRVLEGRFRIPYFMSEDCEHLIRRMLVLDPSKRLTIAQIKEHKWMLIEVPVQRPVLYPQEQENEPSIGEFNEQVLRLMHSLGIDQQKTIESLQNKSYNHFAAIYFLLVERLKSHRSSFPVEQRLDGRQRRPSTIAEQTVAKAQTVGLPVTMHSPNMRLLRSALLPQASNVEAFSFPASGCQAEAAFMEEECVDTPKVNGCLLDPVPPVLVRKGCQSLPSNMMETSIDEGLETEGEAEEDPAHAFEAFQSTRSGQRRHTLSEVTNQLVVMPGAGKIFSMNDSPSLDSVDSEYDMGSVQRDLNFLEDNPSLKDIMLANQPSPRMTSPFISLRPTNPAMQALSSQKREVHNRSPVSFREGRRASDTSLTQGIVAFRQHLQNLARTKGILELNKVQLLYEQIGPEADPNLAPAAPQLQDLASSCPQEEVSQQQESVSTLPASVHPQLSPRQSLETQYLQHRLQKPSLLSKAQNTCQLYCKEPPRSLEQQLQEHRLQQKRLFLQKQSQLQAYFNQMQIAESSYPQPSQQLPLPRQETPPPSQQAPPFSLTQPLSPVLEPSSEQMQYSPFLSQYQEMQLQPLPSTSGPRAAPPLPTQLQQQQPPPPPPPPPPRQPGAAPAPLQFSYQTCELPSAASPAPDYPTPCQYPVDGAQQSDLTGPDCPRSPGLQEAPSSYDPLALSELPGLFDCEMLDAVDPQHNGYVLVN
Sequence of UniProt O14920 (whole entry, looked up): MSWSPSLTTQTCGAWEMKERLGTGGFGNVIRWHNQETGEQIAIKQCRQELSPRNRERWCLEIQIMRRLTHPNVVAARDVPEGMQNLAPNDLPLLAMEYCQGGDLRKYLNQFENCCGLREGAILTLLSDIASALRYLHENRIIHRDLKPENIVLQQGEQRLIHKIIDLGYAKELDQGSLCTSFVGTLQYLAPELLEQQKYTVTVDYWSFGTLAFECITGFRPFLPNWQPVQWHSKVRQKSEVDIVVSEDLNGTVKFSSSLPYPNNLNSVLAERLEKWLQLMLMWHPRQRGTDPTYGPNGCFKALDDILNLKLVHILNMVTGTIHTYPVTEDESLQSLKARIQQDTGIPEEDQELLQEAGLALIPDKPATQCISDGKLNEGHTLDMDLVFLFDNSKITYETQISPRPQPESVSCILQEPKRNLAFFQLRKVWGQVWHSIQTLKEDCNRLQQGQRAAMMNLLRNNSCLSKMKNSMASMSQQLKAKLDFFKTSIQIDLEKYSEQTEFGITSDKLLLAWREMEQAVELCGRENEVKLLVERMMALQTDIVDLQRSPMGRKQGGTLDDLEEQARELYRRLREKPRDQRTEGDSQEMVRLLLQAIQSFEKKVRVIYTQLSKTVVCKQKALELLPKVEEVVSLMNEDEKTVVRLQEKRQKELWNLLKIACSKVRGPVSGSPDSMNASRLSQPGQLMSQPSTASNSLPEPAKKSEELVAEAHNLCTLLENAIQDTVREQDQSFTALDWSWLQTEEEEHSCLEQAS
Sequence of UniProt P53355 (whole entry, looked up): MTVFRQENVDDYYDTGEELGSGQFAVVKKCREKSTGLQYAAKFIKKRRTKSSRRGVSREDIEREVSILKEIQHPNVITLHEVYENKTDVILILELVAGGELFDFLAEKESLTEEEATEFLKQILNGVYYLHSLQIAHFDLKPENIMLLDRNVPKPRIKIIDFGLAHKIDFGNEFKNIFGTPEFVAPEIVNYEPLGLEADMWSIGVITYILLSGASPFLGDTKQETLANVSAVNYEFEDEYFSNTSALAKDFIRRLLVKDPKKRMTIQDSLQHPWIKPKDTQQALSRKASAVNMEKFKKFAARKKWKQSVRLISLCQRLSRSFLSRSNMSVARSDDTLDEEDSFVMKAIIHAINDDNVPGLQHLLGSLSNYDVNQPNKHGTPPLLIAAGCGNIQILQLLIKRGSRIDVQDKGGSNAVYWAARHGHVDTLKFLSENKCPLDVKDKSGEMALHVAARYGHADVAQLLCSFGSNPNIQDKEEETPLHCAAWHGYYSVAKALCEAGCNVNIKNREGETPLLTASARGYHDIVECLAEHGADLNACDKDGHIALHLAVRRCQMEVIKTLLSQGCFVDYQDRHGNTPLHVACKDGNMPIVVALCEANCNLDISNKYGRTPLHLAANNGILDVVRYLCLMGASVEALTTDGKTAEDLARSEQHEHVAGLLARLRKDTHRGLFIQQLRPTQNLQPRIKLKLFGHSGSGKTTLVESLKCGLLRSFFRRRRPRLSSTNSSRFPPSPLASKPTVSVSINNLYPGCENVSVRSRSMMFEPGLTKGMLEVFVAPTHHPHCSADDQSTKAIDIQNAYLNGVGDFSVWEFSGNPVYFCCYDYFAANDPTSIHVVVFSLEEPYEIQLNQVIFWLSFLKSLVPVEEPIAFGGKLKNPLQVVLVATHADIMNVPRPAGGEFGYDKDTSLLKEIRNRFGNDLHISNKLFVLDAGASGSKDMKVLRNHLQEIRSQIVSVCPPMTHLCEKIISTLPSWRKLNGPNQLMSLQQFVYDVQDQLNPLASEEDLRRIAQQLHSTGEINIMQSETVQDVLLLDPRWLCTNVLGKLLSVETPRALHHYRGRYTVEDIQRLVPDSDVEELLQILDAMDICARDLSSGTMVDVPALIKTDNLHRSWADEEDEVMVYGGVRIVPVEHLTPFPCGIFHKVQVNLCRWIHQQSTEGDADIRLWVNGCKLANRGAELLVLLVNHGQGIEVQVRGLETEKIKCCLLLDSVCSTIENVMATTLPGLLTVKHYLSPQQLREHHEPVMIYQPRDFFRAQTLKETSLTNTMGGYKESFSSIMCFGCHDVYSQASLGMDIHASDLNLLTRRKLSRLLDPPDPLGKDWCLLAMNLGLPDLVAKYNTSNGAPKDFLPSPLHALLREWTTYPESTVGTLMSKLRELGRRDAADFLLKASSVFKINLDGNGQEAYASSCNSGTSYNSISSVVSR
Sequence of UniProt P31152 (whole entry, looked up): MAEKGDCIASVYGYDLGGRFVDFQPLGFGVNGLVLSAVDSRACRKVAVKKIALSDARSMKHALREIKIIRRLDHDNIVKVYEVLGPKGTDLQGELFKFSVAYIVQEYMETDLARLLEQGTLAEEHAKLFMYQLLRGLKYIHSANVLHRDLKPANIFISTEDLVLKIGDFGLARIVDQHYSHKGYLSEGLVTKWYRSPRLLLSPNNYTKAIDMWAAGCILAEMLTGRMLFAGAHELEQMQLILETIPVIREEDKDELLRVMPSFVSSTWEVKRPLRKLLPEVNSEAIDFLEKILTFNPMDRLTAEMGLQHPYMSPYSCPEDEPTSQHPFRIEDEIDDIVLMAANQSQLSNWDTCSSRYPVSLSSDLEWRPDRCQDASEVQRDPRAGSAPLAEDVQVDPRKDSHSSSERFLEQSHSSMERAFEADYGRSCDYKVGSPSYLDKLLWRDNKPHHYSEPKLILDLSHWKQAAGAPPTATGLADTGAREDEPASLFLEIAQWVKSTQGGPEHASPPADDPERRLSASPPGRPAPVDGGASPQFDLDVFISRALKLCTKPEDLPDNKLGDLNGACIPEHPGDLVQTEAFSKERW
Sequence of UniProt P49336 (whole entry, looked up): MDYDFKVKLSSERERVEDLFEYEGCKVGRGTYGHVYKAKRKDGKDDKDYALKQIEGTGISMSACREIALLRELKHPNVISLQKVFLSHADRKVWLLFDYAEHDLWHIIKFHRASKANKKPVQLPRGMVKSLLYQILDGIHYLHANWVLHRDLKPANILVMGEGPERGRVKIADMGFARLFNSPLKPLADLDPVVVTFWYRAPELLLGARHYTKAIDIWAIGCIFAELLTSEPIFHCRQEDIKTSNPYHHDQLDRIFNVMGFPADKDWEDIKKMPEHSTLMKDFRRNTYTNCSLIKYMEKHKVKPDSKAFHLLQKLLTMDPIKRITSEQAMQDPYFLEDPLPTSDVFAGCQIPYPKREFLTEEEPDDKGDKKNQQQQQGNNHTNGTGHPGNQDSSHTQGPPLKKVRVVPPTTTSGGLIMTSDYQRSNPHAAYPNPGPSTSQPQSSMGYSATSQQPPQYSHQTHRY

Block 1 — observed: enzyme activity; action: inhibitor; tested at: 10 µM
Target: Calcium/calmodulin-dependent protein kinase type II subunit alpha (CAMK2A, Homo sapiens, UniProt Q9UQM7)
Sequence of UniProt Q9UQM7 (whole entry, looked up): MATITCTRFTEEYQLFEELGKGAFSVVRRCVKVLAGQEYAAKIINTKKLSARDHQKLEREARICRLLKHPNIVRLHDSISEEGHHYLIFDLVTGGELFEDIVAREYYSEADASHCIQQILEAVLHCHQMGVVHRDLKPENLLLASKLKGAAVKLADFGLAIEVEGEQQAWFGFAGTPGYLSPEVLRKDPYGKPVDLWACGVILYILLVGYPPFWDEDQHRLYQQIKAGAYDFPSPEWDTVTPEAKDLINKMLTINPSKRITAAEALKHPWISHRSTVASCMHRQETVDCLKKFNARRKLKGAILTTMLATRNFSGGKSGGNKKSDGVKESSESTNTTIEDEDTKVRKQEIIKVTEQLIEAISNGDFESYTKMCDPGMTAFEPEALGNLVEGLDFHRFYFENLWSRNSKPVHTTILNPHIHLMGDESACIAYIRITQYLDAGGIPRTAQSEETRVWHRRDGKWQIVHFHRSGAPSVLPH
Structure (SMILES)	inhibition [%]
CC(=O)O[C@@H](CC=C(C)C)C1=CC(=O)c2c(O)ccc(O)c2C1=O	-11
CC(C)=CCC[C@](C)(O[C@@H]1O[C@H](CO)[C@@H](O)[C@H](O)[C@H]1O)[C@H]1CC[C@]2(C)[C@@H]1[C@H](O)C[C@@H]1[C@@]3(C)C[C@@H](O)[C@H](O[C@@H]4O[C@H](CO)[C@@H](O)[C@H](O)[C@H]4O[C@@H]4O[C@H](CO)[C@@H](O)[C@H](O)[C@H]4O)C(C)(C)[C@@H]3CC[C@]12C	8
CC(=O)O[C@H](C[C@@H](C)[C@H]1C(=O)[C@H](O)[C@@]2(C)[C@@H]3CC[C@H]4C(C)(C)[C@@H](O[C@@H]5OC[C@H](O)[C@H](O)[C@H]5O)CC[C@@]45C[C@@]35CC[C@]12C)[C@@H]1OC1(C)C	-32
Cn1cncc1C[C@H](N)C(=O)O	-13
CC(=O)CCCC(C)CCCC(C)CCCC(C)C (stereo not drawn)	44
C/C(=C\CC[C@@H](C)[C@H]1CC[C@@]2(C)C3=C(CC[C@]12C)[C@@]1(C)CCC(=O)C(C)(C)[C@@H]1CC3=O)C(=O)O	35

Block 2 — observed: RNA clamping; method: fluorescence polarization; tested at: concentration not given; setting: mean of two replicates; added: FAM-labelled poly r(AG)8 RNA
Target: Eukaryotic initiation factor 4A-III (Homo sapiens, UniProt P38919)
Sequence of UniProt P38919 (whole entry, looked up): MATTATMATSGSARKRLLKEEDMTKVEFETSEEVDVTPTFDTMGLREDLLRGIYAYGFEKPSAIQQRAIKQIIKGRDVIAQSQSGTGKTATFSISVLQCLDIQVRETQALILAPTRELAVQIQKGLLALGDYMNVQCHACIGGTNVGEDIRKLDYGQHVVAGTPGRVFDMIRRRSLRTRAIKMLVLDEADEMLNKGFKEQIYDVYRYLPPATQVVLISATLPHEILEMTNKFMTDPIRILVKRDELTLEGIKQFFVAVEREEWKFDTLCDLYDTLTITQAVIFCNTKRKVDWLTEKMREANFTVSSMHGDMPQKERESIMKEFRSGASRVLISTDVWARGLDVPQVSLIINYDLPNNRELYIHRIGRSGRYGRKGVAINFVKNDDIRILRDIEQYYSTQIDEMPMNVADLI
Structure (SMILES)	fluorescence polarization change
CCCc1ccc(C(=O)[C@H]2[C@@H](O)[C@@]3(O)c4c(OC)cc(OC)cc4O[C@@]3(c3ccc(OC)cc3)[C@@H]2c2ccccc2)o1	6.5 mP
COc1ccc([C@]23[C@H](c4ccccc4)C[C@@H](O)[C@@]2(O)c2c(OC)cccc2N3C)cc1	-1.3 mP
COc1ccc([C@]23Oc4cc(OC)cc(OC)c4[C@@]4(O[C@@H]5CCCN5C(=O)[C@@H]4[C@H]2c2ccccc2)[C@@H]3O)cc1	-3 mP
COCCN[C@@]12C(=O)[C@H](C(=O)N(C)C)[C@@H](c3ccccc3)[C@]1(c1ccc(OC)cc1)Oc1cc(OC)cc(OC)c12	0.8 mP
CONC(=O)[C@H]1[C@@H](O)[C@@]2(O)c3c(OC)cc(F)cc3O[C@@]2(c2ccc(Br)cc2)[C@@H]1c1ccccc1	62.5 mP

Block 3 — organism: Plasmodium berghei; action: inhibitor; cell line: Huh-7; strain: liver stage; tested at: 10 µM; time: 24 h; reference: untreated control
Compound	infection rate [%]
NS(=O)(=O)c1cc2c(cc1Cl)NCNS2(=O)=O	93.7
CC(=O)O[C@H]1C[C@@]2(C)[C@@H](C[C@@H](O)[C@H]3[C@@]4(C)CC[C@@H](O)[C@@H](C)[C@@H]4CC[C@@]32C)/C1=C(\CCC=C(C)C)C(=O)O	90.2
CO[C@@]1(NC(=O)C(C(=O)O)c2ccc(O)cc2)C(=O)N2C(C(=O)O)=C(CSc3nnnn3C)CO[C@@H]21 (stereo partly drawn)	122
CO[C@]12C[C@@H](COC(=O)c3cncc(Br)c3)CN(C)[C@@H]1Cc1cn(C)c3cccc2c13	98.1
COC(=O)Nc1nc2cc(C(=O)c3ccccc3)ccc2[nH]1	78.9
CCN(CC)CCNC(=O)c1cc(Cl)c(N)cc1OC	101
CCn1cc(C(=O)O)c(=O)c2ccc(C)nc21	90.1
COC(=O)C1=C(C)NC(C)=C(C(=O)OCCN(C)Cc2ccccc2)C1c1cccc([N+](=O)[O-])c1 (stereo not drawn)	112

Block 4 — method: competition with immobilised ligand; tested at: 1 µM
SMILES: O=C(N[C@H]1CCCCC/C=C\C2C[C@@]2(C(=O)O)NC(=O)[C@@H]2C[C@@H](Oc3ccncc3)CN2C1=O)OC1CCCC1 (stereo partly drawn)
target	observed	remaining binding
Serine/threonine-protein kinase SIK2 (SIK2, Homo sapiens, UniProt Q9H0K1)	binding	100%
Ephrin type-A receptor 3 (EPHA3, Homo sapiens, UniProt P29320)	cell-free assay	86%
Eukaryotic translation initiation factor 2-alpha kinase 1 (EIF2AK1, Homo sapiens, UniProt Q9BQI3)	binding	100%
Cyclin-dependent kinase 8 (CDK8, Homo sapiens, UniProt P49336)	binding	66%
Mitogen-activated protein kinase kinase kinase kinase 3 (MAP4K3, Homo sapiens, UniProt Q8IVH8)	binding	100%
Epidermal growth factor receptor (EGFR, Homo sapiens, UniProt P00533)	cell-free assay	99%
Mitogen-activated protein kinase 4 (MAPK4, Homo sapiens, UniProt P31152)	binding	100%
Activin receptor type-1 (ACVR1, Homo sapiens, UniProt Q04771)	cell-free assay	100%
Tyrosine-protein kinase receptor Tie-1 (TIE1, Homo sapiens, UniProt P35590)	cell-free assay	100%
Serine/threonine-protein kinase tousled-like 1 (TLK1, Homo sapiens, UniProt Q9UKI8)	cell-free assay	82%
Serine/threonine-protein kinase WNK3 (WNK3, Homo sapiens, UniProt Q9BYP7)	binding	100%
Tyrosine-protein kinase JAK2, JH1 (JAK2, Homo sapiens, UniProt O60674)	binding	100%
Mitogen-activated protein kinase kinase kinase 20 (MAP3K20, Homo sapiens, UniProt Q9NYL2)	binding	90%
Tyrosine-protein kinase ABL1, phosphorylated (ABL1, Homo sapiens, UniProt P00519, Q252H)	binding	85%
Serine/threonine-protein kinase MARK1 (MARK1, Homo sapiens, UniProt Q9P0L2)	binding	100%
Death-associated protein kinase 1 (DAPK1, Homo sapiens, UniProt P53355)	binding	83%
Protein kinase C eta type (PRKCH, Homo sapiens, UniProt P24723)	cell-free assay	91%
Inhibitor of nuclear factor kappa-B kinase subunit beta (IKBKB, Homo sapiens, UniProt O14920)	binding	91%
Serine/threonine-protein kinase Nek5 (NEK5, Homo sapiens, UniProt Q6P3R8)	binding	91%
Macrophage-stimulating protein receptor (MST1R, Homo sapiens, UniProt Q04912)	cell-free assay	97%
Proto-oncogene tyrosine-protein kinase receptor Ret (RET, Homo sapiens, UniProt P07949, V804L)	binding	86%

Block 5 — cell line: HaCaT; tested at: 100 µM; time: 18 h
SMILES	viability [%]
Cn1c(=O)c2c(ncn2CC2OCCO2)n(C)c1=O	98.8
COC(=O)[C@H]1[C@H]2C[C@@H]3c4[nH]c5cc(OC)ccc5c4CCN3C[C@H]2C[C@@H](OC(=O)c2cc(OC)c(OC)c(OC)c2)[C@@H]1OC	82.1
Cc1onc(-c2ccccc2)c1C(=O)N[C@@H]1C(=O)N2[C@@H]1SC(C)(C)[C@@H]2C(=O)O	108
N[C@@H](C(=O)N[C@@H]1C(=O)N2C(C(=O)O)=C(Cl)CS[C@H]12)c1ccccc1	108
CCN(CC)CCNC(C(=O)OCCC(C)C)c1ccccc1 (stereo not drawn)	111
COc1cc2nccc(Oc3ccc(NC(=O)C4(C(=O)Nc5ccc(F)cc5)CC4)cc3)c2cc1OC	60.5
CC[C@H]1OC(=O)[C@H](C)[C@@H](O[C@H]2C[C@@](C)(OC)[C@@H](O)[C@H](C)O2)[C@H](C)[C@@H](O[C@@H]2O[C@H](C)C[C@H](N(C)C)[C@H]2O)[C@](C)(OC)C[C@@H](C)C(=O)[C@H](C)[C@@H](O)[C@]1(C)O	112
O=C[C@H](O)[C@@H](O)[C@H](O)[C@H](O)CO	93.6
